# Results collected from several papers.
# Lines come from different studies, so protocols differ.
# AR: Androgen receptor (AR, Homo sapiens, UniProt P10275)
SMILES,tested on,test,test system,conditions,how to read,endpoint,result
CN1[C@@H]2CC[C@H]1C[C@@H](OC(=O)C(CO)c1ccccc1)C2 (some centres unmarked),Plasmodium falciparum,,W2,,,IC50,5010 nM
CCC(=O)N[C@H](CCCCl)C(=O)N1C(=O)C=C(OC)[C@@H]1CCCCl,"Androgen receptor (AR, Homo sapiens, UniProt P10275, T878A)",,LNCaP,10 µM,,activity,inactive
Clc1ccc(-c2ccc(Cl)cc2Cl)cc1,AR,"reporter gene, antagonist",,"40 µM, together with: DHT 2 nM",baseline: DHT 2 nM,maximum activity,12%
CCN(CC)[C@@H]1CCc2c(F)ccc(O)c2C1,Plasmodium falciparum,,7G8,,,IC50,794 nM
Oc1ccc(-c2ccc(Cl)cc2)c(Cl)c1,AR,"reporter gene, antagonist",,"24 h, together with: DHT 2 nM",,IC25,300 nM
C[C@]12CC[C@H]3[C@@H](CCC4=CC(=O)CC[C@@]43C)[C@@H]1C[C@@H](O)[C@@H]2O,AR,,cells,concentration not given,,activity,inactive
NC(=O)c1cc(N2CC2)c([N+](=O)[O-])cc1[N+](=O)[O-],"Androgen receptor (AR, Homo sapiens, UniProt P10275, Q868H)","reporter gene, antagonist",,together with: R1881 2 nM,,IC50,inactive
C[C@H](C(=O)N[C@H]1COc2ccccc2[C@@H]1S(C)(=O)=O)c1ccc(F)cc1,AR,binding,,"10 µM, Eurofins selectivity panel, together with: testosterone",,inhibition,7%
COCc1c(-c2cc3cc(C)cc(OC)c3s2)c2c(N)ncnn2c1CN1CCNC(=O)C1,AR,"binding, radioligand binding",,10 µM,,inhibition,12%
Clc1ccc(Cl)c(-c2ccccc2Cl)c1,AR,"reporter gene, antagonist",,"24 h, together with: DHT 2 nM",,IC25,400 nM
CC(C)CC(=O)OC[C@H]1O[C@@](C#N)(c2ccc3c(N)ncnn23)[C@H](O)[C@@H]1O,AR,,,20 µM,,inhibition,13%
